Assay results gathered from unrelated publications.
Compare with care: the assays were run in different laboratories. Values joined by “and” are separate records of one study, mostly repeats; a detail may differ. Numbers after ± are the reported error.

For `Cc1nn(-c2ccccc2F)c(C)c1C(=O)Nc1ccc2ccccc2n1`, the inhibition was > 70% (Wnt-HEK293; Wnt/β-catenin signalling, inhibitor, luciferase reporter; 1 µM).
The inhibition of `COc1cc(/C=C/C(=O)CC(=O)/C=C/c2ccc(O)c(OC)c2)ccc1O` is reported as ~50.6% (BV-2; nitric oxide production, Griess; 10 µM, together with: LPS 100 ng/mL; baseline: LPS alone).
The inhibition of `COc1cc(/C=C/C(=O)CC(=O)/C=C/c2ccc(O)c(OC)c2)ccc1O` is reported as 52% and ~50% (human enterocytes, cryopreserved; testosterone glucuronide formation; 50 µM, 0.75 h, together with: testosterone 50 µM).
With `Cc1nn(-c2c(Cl)cccc2Cl)c(C)c1C(=O)Nc1ccc2ccccc2n1` the inhibition was < 50% (Wnt-HEK293; Wnt/β-catenin signalling, inhibitor, luciferase reporter; 1 µM).
`Cc1nn(-c2nc3c(F)cc(F)cc3s2)c(O)c1C(c1ccc(C(F)(F)F)cc1)c1c(C)nn(-c2nc3c(F)cc(F)cc3s2)c1O` gave an inhibition of 101% (THP1-Dual; IFN luciferase reporter; 80 µM, together with: HT-DNA).
`Cn1cc(-c2ccc(-c3cncc(Cl)c3N3CCC4(CCNC4=O)CC3)cc2)cn1` — result for “log2 fold change”: 2.81 (COLO 205; gene expression, microarray, refers to: EDN2 mRNA; concentration not given, 6 h; baseline: untreated cells).
The inhibition of `CC[C@H](C)[C@@H]1NC(=O)[C@H](CCC(=O)O)NC(=O)[C@H](Cc2c[nH]c3ccccc23)NC(=O)[C@H](CCCCN)NC(=O)[C@H](CC(=O)O)NC(=O)[C@H](CCCCN)NC(=O)[C@@H](NC(=O)[C@@H](NC(=O)CNC(=O)[C@@H]2CCCN2C(=O)[C@H](CC(N)=O)NC(=O)CCCCCN)[C@@H](C)O)CSSC[C@@H](C(=O)N[C@@H](CC(C)C)C(=O)N[C@@H](CC(C)C)C(=O)N[C@@H](CC(N)=O)C(=O)NCC(=O)NCC(=O)O)NC1=O` is reported as 73% (LS174T; labelled peptide binding; concentration not given, 1 h; baseline: unlabelled native peptide).
The inhibition of `OCc1cnc(-c2nn(Cc3ccccc3)c3ccccc23)o1` is reported as < 50% (RBE; cell viability; 46 µM).
`Cc1ccc(C)c(-n2nc(C)c(C(=O)Nc3ccc4ccccc4n3)c2C)c1` has an inhibition of > 70% (Wnt-HEK293; Wnt/β-catenin signalling, inhibitor, luciferase reporter; 1 µM).
`CC(=O)O[C@@]12CO[C@@H]1C[C@H](O)[C@@]1(C)C(=O)[C@H](O)C3=C(C)[C@@H](OC(=O)[C@H](O)[C@@H](NC(=O)OC(C)(C)C)c4ccccc4)C[C@@](O)([C@@H](OC(=O)c4ccccc4)[C@H]21)C3(C)C` has an inhibition of 25% (4T1; cell invasion, Matrigel Transwell; concentration not given, 24 h, together with: CXCL12 200 ng/mL; baseline: PBS).
The inhibition of `Cc1cc(N2CCc3c(c(C)nn3CC34CCC(NC(=O)[C@@H]5COCCN5)(CC3)CC4)C2)c2cnn(C)c2n1` is reported as 96 ± 1% (human PBMC; qRT-PCR, refers to: MX1 mRNA; 100 nM, together with: ssRNA).
For `OCc1ncc(-c2nn(Cc3ccccc3)c3ccccc23)o1`, the inhibition was < 50% (RBE; cell viability; 46 µM).
`CCc1ccccc1-n1nc(C)c(C(=O)Nc2ccc3ccccc3n2)c1C` has an inhibition of > 70% (Wnt-HEK293; Wnt/β-catenin signalling, inhibitor, luciferase reporter; 1 µM).
`CC(C)N=C(N)c1ccc2nc(-c3ccc(OCc4cccc(COc5ccc(-c6nc7ccc(C(N)=NC(C)C)cc7[nH]6)cc5)c4F)cc3)[nH]c2c1` — result for inhibition: “no effect” (HEK293 cells CMV-luciferase; reporter gene, CMV-luciferase counter-screen; concentration not given).

Excerpt of the above:
With `Cc1nn(-c2c(Cl)cccc2Cl)c(C)c1C(=O)Nc1ccc2ccccc2n1` the inhibition was < 50% (Wnt-HEK293; Wnt/β-catenin signalling, inhibitor, luciferase reporter; 1 µM).
`Cc1nn(-c2nc3c(F)cc(F)cc3s2)c(O)c1C(c1ccc(C(F)(F)F)cc1)c1c(C)nn(-c2nc3c(F)cc(F)cc3s2)c1O` gave an inhibition of 101% (THP1-Dual; IFN luciferase reporter; 80 µM, together with: HT-DNA).
